Experimental data of several laboratories.
Each line is one published result; not all experiments were run side by side. ± gives the spread as reported.
MRGPRX2: Mas-related G-protein coupled receptor member X2 (MRGPRX2, Homo sapiens, UniProt Q96LB1)
Sequence of UniProt Q96LB1 (whole entry, looked up): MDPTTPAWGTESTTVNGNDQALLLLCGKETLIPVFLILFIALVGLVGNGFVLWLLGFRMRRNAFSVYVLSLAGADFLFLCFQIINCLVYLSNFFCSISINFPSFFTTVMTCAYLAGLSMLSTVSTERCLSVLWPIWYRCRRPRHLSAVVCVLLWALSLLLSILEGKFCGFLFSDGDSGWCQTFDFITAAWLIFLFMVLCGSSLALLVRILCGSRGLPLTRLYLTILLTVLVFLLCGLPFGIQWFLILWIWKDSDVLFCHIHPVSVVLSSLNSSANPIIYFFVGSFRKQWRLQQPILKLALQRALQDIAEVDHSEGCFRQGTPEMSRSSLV
CHRM1: Muscarinic acetylcholine receptor M1 (CHRM1, Homo sapiens, UniProt P11229)
Sequence of UniProt P02716 (whole entry, unmodified, looked up): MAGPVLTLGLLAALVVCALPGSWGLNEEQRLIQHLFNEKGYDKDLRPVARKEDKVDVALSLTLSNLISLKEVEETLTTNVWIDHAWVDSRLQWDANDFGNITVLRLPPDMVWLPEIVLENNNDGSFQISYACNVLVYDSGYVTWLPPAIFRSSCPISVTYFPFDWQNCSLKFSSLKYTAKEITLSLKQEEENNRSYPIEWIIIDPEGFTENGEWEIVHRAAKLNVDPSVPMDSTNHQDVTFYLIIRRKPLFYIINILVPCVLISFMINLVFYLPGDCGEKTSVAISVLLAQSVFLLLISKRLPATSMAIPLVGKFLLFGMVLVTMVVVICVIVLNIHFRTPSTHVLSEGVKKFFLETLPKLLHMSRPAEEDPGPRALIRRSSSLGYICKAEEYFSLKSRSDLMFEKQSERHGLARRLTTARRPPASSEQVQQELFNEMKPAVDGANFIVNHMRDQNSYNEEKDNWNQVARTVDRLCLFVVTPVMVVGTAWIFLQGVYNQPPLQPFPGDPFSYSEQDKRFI
Sequence of UniProt P04756 (whole entry, unmodified, looked up): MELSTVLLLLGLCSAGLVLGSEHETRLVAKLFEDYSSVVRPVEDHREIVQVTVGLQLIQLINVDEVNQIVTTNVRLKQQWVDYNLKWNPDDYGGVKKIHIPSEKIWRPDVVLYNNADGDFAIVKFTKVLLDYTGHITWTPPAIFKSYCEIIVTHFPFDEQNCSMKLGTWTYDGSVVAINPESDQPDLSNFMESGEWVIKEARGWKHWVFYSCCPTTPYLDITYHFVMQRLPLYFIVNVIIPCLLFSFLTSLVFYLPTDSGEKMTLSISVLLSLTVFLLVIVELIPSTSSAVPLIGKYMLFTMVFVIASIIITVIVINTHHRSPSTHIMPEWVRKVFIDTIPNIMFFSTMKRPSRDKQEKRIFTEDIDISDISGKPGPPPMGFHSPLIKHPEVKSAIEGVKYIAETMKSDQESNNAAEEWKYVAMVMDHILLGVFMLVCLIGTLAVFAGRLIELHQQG
Sequence of UniProt P20782 (whole entry, unmodified, looked up): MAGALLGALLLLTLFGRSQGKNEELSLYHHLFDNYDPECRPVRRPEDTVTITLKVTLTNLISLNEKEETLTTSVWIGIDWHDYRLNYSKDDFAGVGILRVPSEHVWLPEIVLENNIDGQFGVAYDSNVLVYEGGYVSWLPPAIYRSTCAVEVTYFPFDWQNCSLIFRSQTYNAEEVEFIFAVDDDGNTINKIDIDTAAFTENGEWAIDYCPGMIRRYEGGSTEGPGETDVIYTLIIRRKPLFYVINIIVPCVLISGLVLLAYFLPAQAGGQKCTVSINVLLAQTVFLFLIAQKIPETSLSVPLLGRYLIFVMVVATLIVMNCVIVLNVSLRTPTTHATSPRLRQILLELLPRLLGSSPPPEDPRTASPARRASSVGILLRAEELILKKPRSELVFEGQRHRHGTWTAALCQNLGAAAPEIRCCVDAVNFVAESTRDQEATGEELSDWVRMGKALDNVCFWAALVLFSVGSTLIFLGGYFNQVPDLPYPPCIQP
Sequence of UniProt P11229 (whole entry, looked up): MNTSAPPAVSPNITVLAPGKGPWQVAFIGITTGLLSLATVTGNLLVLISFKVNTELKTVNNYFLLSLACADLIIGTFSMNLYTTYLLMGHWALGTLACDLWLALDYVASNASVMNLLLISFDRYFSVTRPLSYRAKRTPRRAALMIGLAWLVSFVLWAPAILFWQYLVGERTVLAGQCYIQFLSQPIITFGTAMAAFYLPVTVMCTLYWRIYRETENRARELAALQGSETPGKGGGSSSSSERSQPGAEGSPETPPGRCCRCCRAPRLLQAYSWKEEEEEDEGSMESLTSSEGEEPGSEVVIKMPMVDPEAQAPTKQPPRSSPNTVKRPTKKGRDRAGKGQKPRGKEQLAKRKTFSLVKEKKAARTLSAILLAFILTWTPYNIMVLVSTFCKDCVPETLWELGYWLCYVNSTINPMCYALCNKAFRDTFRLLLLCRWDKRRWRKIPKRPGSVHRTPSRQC
Sequence of UniProt Q704Y3 (whole entry, unmodified, looked up): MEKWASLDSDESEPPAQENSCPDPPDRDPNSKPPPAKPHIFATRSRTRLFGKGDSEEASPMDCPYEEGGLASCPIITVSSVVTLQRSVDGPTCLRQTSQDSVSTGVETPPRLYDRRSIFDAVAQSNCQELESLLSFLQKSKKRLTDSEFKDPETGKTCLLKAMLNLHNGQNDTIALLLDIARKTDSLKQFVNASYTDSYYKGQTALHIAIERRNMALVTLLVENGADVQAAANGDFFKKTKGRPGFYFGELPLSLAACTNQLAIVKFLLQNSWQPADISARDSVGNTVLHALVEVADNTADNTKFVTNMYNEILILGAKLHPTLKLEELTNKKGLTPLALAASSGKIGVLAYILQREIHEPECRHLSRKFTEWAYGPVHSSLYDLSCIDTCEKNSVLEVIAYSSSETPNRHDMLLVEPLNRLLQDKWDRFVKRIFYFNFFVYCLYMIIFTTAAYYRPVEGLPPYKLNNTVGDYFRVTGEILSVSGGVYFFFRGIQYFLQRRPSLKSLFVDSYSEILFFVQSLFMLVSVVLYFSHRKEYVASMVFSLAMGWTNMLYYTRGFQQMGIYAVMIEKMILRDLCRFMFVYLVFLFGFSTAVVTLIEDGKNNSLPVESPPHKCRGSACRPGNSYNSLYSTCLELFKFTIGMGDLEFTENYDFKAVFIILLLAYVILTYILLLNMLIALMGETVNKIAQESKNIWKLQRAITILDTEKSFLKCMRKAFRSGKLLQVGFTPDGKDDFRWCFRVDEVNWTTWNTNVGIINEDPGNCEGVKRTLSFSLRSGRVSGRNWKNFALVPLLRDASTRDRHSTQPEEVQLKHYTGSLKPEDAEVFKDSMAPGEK
Sequence of UniProt Q02108 (whole entry, looked up): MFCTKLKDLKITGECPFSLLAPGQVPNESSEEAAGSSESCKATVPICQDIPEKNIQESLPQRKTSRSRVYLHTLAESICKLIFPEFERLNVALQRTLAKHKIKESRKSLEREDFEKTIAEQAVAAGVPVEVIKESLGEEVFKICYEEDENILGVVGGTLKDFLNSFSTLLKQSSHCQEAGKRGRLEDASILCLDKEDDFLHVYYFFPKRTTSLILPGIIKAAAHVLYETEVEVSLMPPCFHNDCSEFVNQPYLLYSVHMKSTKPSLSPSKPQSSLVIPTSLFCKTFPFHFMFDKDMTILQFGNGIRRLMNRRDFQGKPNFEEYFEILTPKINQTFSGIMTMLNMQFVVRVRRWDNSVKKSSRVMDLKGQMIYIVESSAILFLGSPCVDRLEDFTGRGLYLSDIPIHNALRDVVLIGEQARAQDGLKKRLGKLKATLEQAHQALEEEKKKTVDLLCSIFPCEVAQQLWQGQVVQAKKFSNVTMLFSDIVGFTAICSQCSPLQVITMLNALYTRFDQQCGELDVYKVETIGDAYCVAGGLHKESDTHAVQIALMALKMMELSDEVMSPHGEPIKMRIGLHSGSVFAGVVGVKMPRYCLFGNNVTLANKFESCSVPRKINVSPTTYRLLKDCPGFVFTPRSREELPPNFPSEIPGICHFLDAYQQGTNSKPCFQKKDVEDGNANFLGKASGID
Sequence of UniProt P61981 (whole entry, looked up): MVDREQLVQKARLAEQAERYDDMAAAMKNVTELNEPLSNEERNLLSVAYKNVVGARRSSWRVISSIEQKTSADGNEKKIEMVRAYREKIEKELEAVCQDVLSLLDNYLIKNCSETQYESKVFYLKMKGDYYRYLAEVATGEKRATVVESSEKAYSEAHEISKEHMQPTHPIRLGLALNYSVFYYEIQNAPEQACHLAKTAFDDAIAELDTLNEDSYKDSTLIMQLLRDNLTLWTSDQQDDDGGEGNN
Sequence of UniProt Q14994 (whole entry, looked up): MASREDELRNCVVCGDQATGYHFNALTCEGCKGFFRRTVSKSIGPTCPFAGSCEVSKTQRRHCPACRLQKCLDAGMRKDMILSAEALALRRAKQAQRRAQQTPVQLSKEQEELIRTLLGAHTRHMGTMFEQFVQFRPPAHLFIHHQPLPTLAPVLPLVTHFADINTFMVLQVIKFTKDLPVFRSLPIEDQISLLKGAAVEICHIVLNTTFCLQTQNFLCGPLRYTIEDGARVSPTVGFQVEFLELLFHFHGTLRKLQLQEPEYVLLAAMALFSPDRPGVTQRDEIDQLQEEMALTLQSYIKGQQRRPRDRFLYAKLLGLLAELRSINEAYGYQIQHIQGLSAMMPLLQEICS
Sequence of UniProt P30994 (whole entry, looked up): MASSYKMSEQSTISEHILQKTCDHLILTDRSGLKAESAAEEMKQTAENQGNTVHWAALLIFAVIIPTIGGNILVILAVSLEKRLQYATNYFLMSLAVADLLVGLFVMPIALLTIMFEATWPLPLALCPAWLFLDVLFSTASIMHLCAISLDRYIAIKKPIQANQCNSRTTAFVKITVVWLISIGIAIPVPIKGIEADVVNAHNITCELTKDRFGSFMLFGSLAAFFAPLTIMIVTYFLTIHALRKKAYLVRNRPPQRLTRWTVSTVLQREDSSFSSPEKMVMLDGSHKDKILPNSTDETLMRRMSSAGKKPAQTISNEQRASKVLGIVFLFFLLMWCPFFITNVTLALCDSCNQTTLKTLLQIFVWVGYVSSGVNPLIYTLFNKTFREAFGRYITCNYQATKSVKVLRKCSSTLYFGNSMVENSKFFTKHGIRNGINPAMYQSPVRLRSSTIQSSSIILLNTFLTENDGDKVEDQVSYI

Structure (SMILES) | target | assay | test system | conditions | EC50 [µM]
CCCC[C@H](NC(=O)[C@H](CO)NC(C)=O)C(=O)N[C@@H](Cc1ccccc1)C(=O)N[C@@H](CO)C(=O)N[C@@H](CO)C(=O)N[C@@H](CC(N)=O)C(=O)N[C@@H](CCCNC(=N)N)C(=O)N[C@@H](CCC(N)=O)C(=O)N[C@@H](CCCCN)C(=O)N[C@H](C(=O)N[C@@H](CC(C)C)C(=O)N[C@@H](CCC(=O)O)C(=O)N[C@@H](CCCNC(=N)N)C(=O)N[C@H](C(=O)N[C@@H](CCC(=O)O)C(=O)N[C@H](C(=O)N[C@@H](CC(C)C)C(=O)N[C@@H](CC(N)=O)C(=O)N[C@@H](CCC(N)=O)C(=O)N[C@@H](CCC(=O)O)C(=O)N[C@@H](Cc1c[nH]c2ccccc12)C(=O)N[C@@H](CCCCN)C(=O)N[C@@H](CCC(N)=O)C(=O)N[C@@H](CCCNC(=N)N)C(N)=O)[C@@H](C)CC)[C@@H](C)O)[C@@H](C)CC | MRGPRX2 | β-arrestin-2 recruitment, agonist |  |  | > 20
O=C(C1CCCCC1)N1CC(=O)N2CCc3ccccc3[C@@H]2C1 | uncharacterized protein (Schistosoma haematobium, UniProt A0A922LF77) |  |  |  | 0.367 ± 0.101
CCN1CCN(c2cc(C=O)ccc2[N+](=O)[O-])CC1 | YWHAG/RELA, phospho-Ser45 p65 peptide (Homo sapiens, UniProt P61981+Q04206) | ternary complex formation, stabilizer, fluorescence anisotropy |  |  | > 1000
O=C(O)c1ccc(CN2C(=O)CN(C(=O)c3ccco3)c3cc(-c4ccccc4)c(Oc4ccc(C(=O)O)cc4)cc32)cc1 | Soluble guanylate cyclase alpha1/beta1 complex (Homo sapiens, UniProt Q02108+Q02153) | enzyme activity, activator, purified recombinant enzyme |  |  | 0.766
c1cc(N2CCNCC2)c2cc[nH]c2c1 | CHRM1 | ERK1/2 phosphorylation, agonist | CHO cells |  | > 20
O=C1c2ccccc2C(=O)C1C(=O)C(c1ccccc1)c1ccc(Cl)cc1 (stereo not drawn) | Nuclear receptor subfamily 1 group I member 3 (Homo sapiens, UniProt Q14994) | cell-based |  |  | 45.5 ± 0.58
CC(C)C[C@H](NC(=O)[C@H](Cc1ccccc1)NC(=O)[C@H](Cc1ccc(O)cc1)NC(=O)CNC(=O)[C@H](CCCCN)NC(=O)[C@H](CO)NC(=O)[C@H](CCC(N)=O)NC(=O)CNC(=O)[C@@H](NC(=O)[C@H](CO)NC(=O)[C@@H]1CCCN1C(=O)[C@H](CO)NC(=O)[C@H](CCC(N)=O)NC(=O)[C@H](Cc1ccc(O)cc1)NC(=O)[C@H](CCC(=O)O)NC(=O)[C@H](C)NC(=O)[C@H](CCCCN)NC(=O)[C@@H](N)Cc1ccccc1)C(C)C)C(=O)N[C@@H](Cc1ccccc1)C(=O)N[C@@H](CCCNC(=N)N)C(=O)N1CCC[C@H]1C(=O)N[C@@H](CCCNC(=N)N)C(=O)N[C@@H](CC(N)=O)C(N)=O | Neuromedin-U receptor 1 (Mus musculus, UniProt O55040) | IP-1 accumulation, agonist, IP-1 |  | mean of independent runs | 0.00017
C[C@H](N)Cn1ncc2ccc3c(c21)CCCO3 | 5-hydroxytryptamine receptor 2B (Rattus norvegicus, UniProt P30994) | contraction, agonist | rat stomach fundus |  | 0.0019 ± 0.0008
CC[C@H](C)[C@H](NC(=O)[C@H](CCCCN)NC(=O)[C@H](CCC(N)=O)NC(=O)[C@H](CCCNC(=N)N)NC(=O)[C@H](CC(N)=O)NC(=O)[C@H](CO)NC(=O)[C@H](CO)NC(=O)[C@H](Cc1ccccc1)NC(C)=O)C(=O)N[C@@H](CC(C)C)C(=O)N[C@@H](CCC(=O)O)C(=O)N[C@@H](CCCNC(=N)N)C(=O)N[C@H](C(=O)N[C@@H](CCC(=O)O)C(=O)N[C@H](C(=O)N[C@@H](CC(C)C)C(=O)N[C@@H](CC(N)=O)C(=O)N[C@@H](CCC(N)=O)C(=O)N[C@@H](CCC(=O)O)C(=O)N[C@@H](Cc1c[nH]c2ccccc12)C(N)=O)[C@@H](C)CC)[C@@H](C)O | MRGPRX2 | β-arrestin-2 recruitment, agonist |  |  | > 20
CN1CCC[C@H]1c1cccnc1 | Chrnd/Chrna1/Chrne (Mus musculus, UniProt P02716+P04756+P20782, G173K/S470W) | cell-based |  |  | 0.7
CC[C@H](C)[C@H](NC(=O)[C@@H]1CCCN1C(C)=O)C(=O)N[C@@H](CCC(=O)O)C(=O)N[C@H](C(=O)N[C@@H](CS)C(=O)N[C@@H](CCSC)C(=O)N[C@@H](Cc1ccc(O)cc1)C(=O)N[C@@H](CCCNC(=N)N)C(=O)N[C@@H](CCC(=O)O)C(=O)N1CCC[C@H]1C(N)=O)C(C)C | MRGPRX2 | β-arrestin-2 recruitment, agonist |  |  | > 20
CC[C@H](C)[C@H](NC(=O)[C@H](Cc1ccccc1)NC(=O)[C@H](CC(=O)O)NC(=O)[C@H](CCCNC(=N)N)NC(=O)[C@@H](NC(=O)[C@H](C)NC(=O)[C@H](CC(C)C)NC(=O)[C@H](CC(N)=O)NC(=O)[C@H](CC(=O)O)NC(=O)[C@H](CC(C)C)NC(=O)[C@@H](NC(=O)[C@@H](NC(=O)[C@H](CO)NC(=O)[C@H](CCSC)NC(=O)[C@H](CCC(=O)O)NC(=O)[C@H](CC(=O)O)NC(=O)[C@H](CO)NC(=O)[C@H](Cc1ccccc1)NC(=O)[C@H](CO)NC(=O)CNC(=O)[C@H](CC(=O)O)NC(=O)[C@H](C)NC(=O)[C@@H](N)Cc1c[nH]cn1)[C@@H](C)O)[C@@H](C)CC)[C@@H](C)O)C(=O)N[C@@H](CC(N)=O)C(=O)N[C@@H](Cc1c[nH]c2ccccc12)C(=O)N[C@@H](CC(C)C)C(=O)N[C@H](C(=O)N[C@@H](CCC(N)=O)C(=O)N[C@H](C(=O)N[C@@H](CCCCN)C(=O)N[C@H](C(=O)N[C@H](C(=O)N[C@@H](CC(=O)O)C(=O)O)[C@@H](C)O)[C@@H](C)CC)[C@@H](C)O)[C@@H](C)CC | Glucagon-like peptide 2 receptor (GLP2R, Homo sapiens, UniProt O95838) | reporter gene, agonist, CRE-luciferase | HEK-293T |  | 0.00434
CCCCC/C=C\C/C=C\C/C=C\C/C=C\CCCC(=O)NCCO | Transient receptor potential cation channel subfamily V member 1 (Trpv1, Mus musculus, UniProt Q704Y3, N552Q) | ion current, agonist, whole-cell patch clamp |  | 24 °C, N552Q, +80 mV | 4.65 ± 0.71
Cc1cc(N2CCNCC2)nc2ccccc12 | CHRM1 | ERK1/2 phosphorylation, agonist | CHO cells |  | > 20
c1cncc([C@@H]2CCCN2)c1 | Chrnd/Chrna1/Chrne (Mus musculus, UniProt P02716+P04756+P20782) | channel open probability, agonist | mouse | wild type | 71

Excerpt of the above:
Structure (SMILES) | target | assay | test system | conditions | EC50 [µM]
CC[C@H](C)[C@H](NC(=O)[C@H](CCCCN)NC(=O)[C@H](CCC(N)=O)NC(=O)[C@H](CCCNC(=N)N)NC(=O)[C@H](CC(N)=O)NC(=O)[C@H](CO)NC(=O)[C@H](CO)NC(=O)[C@H](Cc1ccccc1)NC(C)=O)C(=O)N[C@@H](CC(C)C)C(=O)N[C@@H](CCC(=O)O)C(=O)N[C@@H](CCCNC(=N)N)C(=O)N[C@H](C(=O)N[C@@H](CCC(=O)O)C(=O)N[C@H](C(=O)N[C@@H](CC(C)C)C(=O)N[C@@H](CC(N)=O)C(=O)N[C@@H](CCC(N)=O)C(=O)N[C@@H](CCC(=O)O)C(=O)N[C@@H](Cc1c[nH]c2ccccc12)C(N)=O)[C@@H](C)CC)[C@@H](C)O | MRGPRX2 | β-arrestin-2 recruitment, agonist |  |  | > 20
